Assay results pooled from the literature.
Every numbered part comes from another study and shows a few of its results, in no order.
UniProt Q9BZL6, sequence (whole entry, looked up): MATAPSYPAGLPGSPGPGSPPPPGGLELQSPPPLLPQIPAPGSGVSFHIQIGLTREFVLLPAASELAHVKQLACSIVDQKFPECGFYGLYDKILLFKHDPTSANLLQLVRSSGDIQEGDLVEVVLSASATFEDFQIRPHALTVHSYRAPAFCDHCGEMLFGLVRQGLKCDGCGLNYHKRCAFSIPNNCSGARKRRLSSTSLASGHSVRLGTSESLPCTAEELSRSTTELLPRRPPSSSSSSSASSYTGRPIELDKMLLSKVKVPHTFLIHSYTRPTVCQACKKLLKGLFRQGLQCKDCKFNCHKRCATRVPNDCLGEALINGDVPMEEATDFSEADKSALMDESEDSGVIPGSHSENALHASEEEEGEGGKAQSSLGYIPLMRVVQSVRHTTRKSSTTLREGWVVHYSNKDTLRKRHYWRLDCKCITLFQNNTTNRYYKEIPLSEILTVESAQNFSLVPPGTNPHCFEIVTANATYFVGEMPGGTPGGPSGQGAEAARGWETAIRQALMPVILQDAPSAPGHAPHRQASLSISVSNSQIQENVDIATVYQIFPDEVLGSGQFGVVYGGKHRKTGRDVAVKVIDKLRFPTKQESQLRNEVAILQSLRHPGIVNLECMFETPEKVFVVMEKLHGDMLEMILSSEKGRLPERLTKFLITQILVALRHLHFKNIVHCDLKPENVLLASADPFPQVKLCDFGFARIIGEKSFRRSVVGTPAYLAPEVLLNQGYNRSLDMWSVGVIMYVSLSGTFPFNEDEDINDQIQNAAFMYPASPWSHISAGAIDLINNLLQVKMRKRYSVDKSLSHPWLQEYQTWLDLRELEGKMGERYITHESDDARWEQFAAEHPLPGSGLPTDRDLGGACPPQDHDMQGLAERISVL
UniProt P68400, sequence (whole entry, looked up): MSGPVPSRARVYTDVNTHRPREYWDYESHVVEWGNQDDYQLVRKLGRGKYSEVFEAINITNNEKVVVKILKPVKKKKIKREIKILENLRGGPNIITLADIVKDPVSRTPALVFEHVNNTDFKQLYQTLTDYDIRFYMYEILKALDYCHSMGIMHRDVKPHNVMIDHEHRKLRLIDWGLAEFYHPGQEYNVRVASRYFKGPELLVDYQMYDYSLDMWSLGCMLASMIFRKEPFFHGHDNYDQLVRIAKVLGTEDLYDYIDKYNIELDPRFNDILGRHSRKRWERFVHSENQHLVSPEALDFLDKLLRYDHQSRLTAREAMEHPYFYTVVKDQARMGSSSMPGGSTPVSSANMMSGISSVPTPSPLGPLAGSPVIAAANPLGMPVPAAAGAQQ
UniProt O15264, sequence (whole entry, looked up): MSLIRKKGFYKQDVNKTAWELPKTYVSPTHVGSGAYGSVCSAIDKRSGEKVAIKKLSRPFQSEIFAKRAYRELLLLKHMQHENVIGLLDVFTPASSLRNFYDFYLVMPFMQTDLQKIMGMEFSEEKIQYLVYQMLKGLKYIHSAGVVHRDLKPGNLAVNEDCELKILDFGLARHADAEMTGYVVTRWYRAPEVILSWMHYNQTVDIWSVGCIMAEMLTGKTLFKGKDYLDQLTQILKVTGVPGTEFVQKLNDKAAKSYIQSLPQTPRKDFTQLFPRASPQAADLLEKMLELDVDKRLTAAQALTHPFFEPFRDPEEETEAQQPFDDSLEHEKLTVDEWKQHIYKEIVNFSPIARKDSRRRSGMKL
UniProt Q13976, sequence (whole entry, looked up): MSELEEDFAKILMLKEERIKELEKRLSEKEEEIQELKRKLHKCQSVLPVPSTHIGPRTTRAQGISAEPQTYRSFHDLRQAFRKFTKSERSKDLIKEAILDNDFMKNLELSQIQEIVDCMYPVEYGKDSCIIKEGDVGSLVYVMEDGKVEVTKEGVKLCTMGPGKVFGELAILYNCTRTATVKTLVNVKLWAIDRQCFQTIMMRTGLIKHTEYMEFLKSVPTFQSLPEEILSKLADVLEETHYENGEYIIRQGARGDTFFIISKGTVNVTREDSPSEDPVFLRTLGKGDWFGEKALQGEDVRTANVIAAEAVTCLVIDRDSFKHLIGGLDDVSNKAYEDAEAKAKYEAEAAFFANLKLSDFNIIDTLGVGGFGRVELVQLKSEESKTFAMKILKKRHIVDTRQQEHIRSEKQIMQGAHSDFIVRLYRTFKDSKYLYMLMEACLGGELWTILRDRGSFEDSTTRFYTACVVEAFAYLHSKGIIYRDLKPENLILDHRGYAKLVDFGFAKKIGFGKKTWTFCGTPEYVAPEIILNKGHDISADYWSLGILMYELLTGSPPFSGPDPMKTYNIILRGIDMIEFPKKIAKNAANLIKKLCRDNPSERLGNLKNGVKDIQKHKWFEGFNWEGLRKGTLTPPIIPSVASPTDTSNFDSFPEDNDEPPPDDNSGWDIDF

Sample 1
Target: RNA binding protein fox-1 homolog 2, RRM domain, GST-SBP tag (RBFOX2, Homo sapiens, UniProt O43251-10, residues 100-194)
Method: RNA Bind-n-Seq
Molecule type: RNA
Sample: in vitro
Tested at: 365 nM
Setting: natural RNA segment, single round, ends assumed
Baseline: no-protein control
Direction: higher = stronger binding
Quantity: RBNS enrichment (R)
All sequences stand within: GGGAGUUCUACAGUCCGACGAUC … UGGAAUUCUCGGGUGCCAA
CCAGGGACCUCUUUAUCUCAAUCUAUUUAUUUGGCAUCCUGGGAGGGAUUUCCAAUAGUAAUUUAUGUGACCUGGGGCAGGAUACCGUCAGUGAGGUGCCCAGAGCUGCA: 6.62
GUUCAAAGCAUACUUUUCAUGAUUUUUUUAUUACAAAUGUAAAAUGUAUAAAGUCACAUGUACUGCCAUACUACUUCUUUGUAUAUAAAGAUGUUUAUAUCUUUGGAAGU: 0.561
AAGCAUCUUUGAGGAAACUCCUACUUCAGUUCUUUUGUUAUGAUGAAGACAUUUGUGAGAGAGGAGAUGAUUAGAAUUCUAGUAAUGUACUUUUAAGAUGUUACAGAUAC: 0.892
AAACAUAAGUUUUAUUUAAAAAAAAAAAAAGAAAGAAAAAAUAGUAAAUUCCCAGAAAUUCAGUGUUUAGACGAGGGAAUUUAAUUCCUAUUUUGUCCAUGUUGGUGAUG: 1.17
ACCAAGGAAUUGCCUCAGCCUCCUACCAGUCCUCCCUCACCCACCUUCUGUCUAGGUUCACUUGGUUUGUCAUCAGGAACUGAGCAGGUCCAGGACUCAGCUUUCUGCUU: 0.708
ACAUGAAGGCUGUGGCAAUCUCAAGAAAUCAUUUUAAUUUGUACAUAUAUUUUCAGGUUCUGCCCACACUGUGAGGUUUUUCUAGAAUCACUGAGUUUCUGAUUUAGUAG: 0.8
UGACCGUGAGGGCCAGAGAGAGCCUUCACGGACGGCGCUGGUGGGUGAGCCGAGCUGUGGUGGCGGCUGGUUUAAAAGGGAUCCAGUUUCCAGCUGCAGGUUUGUUAGAG: 0.816
AGUGAAUGUUCUAUCAGCAUGAGUGACCAGGGCAAGGACCUGCUGGACAGUGUGUGAUUGGUUCACCAUGACACGAGGGACGAUGCUCAUGGGAAGUGGGGGCACAGGGU: 15.3

Sample 2
SMILES: COc1cc2c(N3CCN(C(=O)Nc4ccc(OC(C)C)cc4)CC3)ncnc2cc1OCCCN1CCCCC1
Effect on: enzyme activity
Mode: inhibitor
Tested at: 0.5 µM
Baseline: control
Quantity: remaining activity
MAPK13 (Homo sapiens, UniProt O15264): 99.3%
PRKG1 (Homo sapiens, UniProt Q13976): 82.5%
CSNK2A1 (Homo sapiens, UniProt P68400): 102%

Sample 3
Target: RING finger protein unkempt homolog, zinc fingers 1-6, GST-SBP tag (UNK, Homo sapiens, UniProt Q9C0B0, residues 30-357)
UniProt Q9C0B0, sequence (30-357, looked up): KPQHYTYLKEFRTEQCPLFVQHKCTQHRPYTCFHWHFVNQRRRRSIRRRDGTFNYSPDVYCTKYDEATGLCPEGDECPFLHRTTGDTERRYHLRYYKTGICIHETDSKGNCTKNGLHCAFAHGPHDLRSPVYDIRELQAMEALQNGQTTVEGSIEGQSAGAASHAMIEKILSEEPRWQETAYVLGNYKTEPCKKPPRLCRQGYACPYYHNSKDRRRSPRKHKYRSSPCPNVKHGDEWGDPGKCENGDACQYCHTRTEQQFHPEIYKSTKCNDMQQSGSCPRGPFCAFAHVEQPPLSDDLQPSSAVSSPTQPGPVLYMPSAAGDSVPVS
Method: RNA Bind-n-Seq
Molecule type: RNA
Sample: in vitro
Tested at: not given
Setting: RNA with constant flanks, human-mouse chimeric sites, ends assumed
Baseline: input RNA pool
Direction: higher = stronger binding
Quantity: bound/input enrichment
All sequences stand within: GGGAGUUCUACAGUCCGACGAUC … CAACAGAGGAUUGAGCAUCA
GAGUCGAGCAAACUUGAAACAAUUCGUUUUACAAAAACCUCAGUGUUCACUUGCUUGGCGAUAGCAUAUUGGGAUUUUAGGUUCUGGAAGGAGAACUGACGAUGAUGCUGCCGCUGCUGC: 0.365 ratio
UGUGCCCCACAAGAUCCUACCUGAGUGGCAGCUGAAGUUGACUCCCUCUCCUUGCCUGAACCCCCCCCCACUGCCCCCCCAUCCCCCAGUGUCGGCUGAGAUGUUGCCAGCAGACAGUUC: 1.92 ratio
GGUGGGGUGGUCAUUGCCGUUUGAGCUGCUGAUUUUCAUGAGUCGCCUUCAAAACUCUCGUGUAGGGUUGACAAUGUGGGGGGGUGGGGGAUCCAGCUAUUUUUUUUUCCCCAGCCCCCA: 2.96 ratio
ACCAUUUUCGCGGUUCAAGGUUUUGUGUGUAUUUACUUACGGUAUUAAAUUAUUAUUCUGCUUAGCUUAUAAUAAGGAUAAUUGCAUUUAAAGAGGUUACUGAAUGUUACUCUGAAACUU: 0.434 ratio
CAGUCCCCGUGUCCCAGUGCAGGACGAUGUGAACAAAAACUCAAAGCGGACCCUCUAUUGUAGUUCUUGAUUCUCGAGUGCCAUUAUUAUUGUUUGUAAAAAAGGAAUUUUUUUUAAAGA: 0.232 ratio
CAGUCCCCGUGUCCCAGUGCAGGACGAUGUGAACAAAAACUCAAAGCGGACCCUCUAUUGUAGUUCUUGAUUCUCGAAAUGUGCUAUUAUUGUUUGUAAAAAAGGAAAAAAGAAAAGAGA: 0.239 ratio
ACAGUUAUACACUGUUGUUUCAUUUUCAUAUAUUCUUGUAGUGUCUGCUUGCCUGUGACUUCUGGUAAAAUAAAAUAAGCCUUUGAAAAUAUUUUAGCAUGGUAUUUUUCUAAAAAUAAA: 1.16 ratio
GGCUGCUACUAUUCUCCCUGGAGUGGCUGGAGUUCCCGCCGGAGCGCGGCCAGACUAAUUUUAGAAAAUGCCAAGUAGGAAGUUUGUUGAGGGUGAAGUGGUCAGAGGUCGAUGGCCUGG: 5.92 ratio

Single results of other studies
COc1ccc2c(O[C@@H]3C[C@H]4C(=O)N[C@]5(C(=O)O)CC5/C=C\CCCCC[C@H](NC(=O)OC5CCCC5)C(=O)N4C3)cc(-c3csc(NC(=O)C(C)C)n3)nc2c1C (some centres unmarked)  remaining binding (Serine/threonine-protein kinase D2 (PRKD2, Homo sapiens, UniProt Q9BZL6); cell-free assay, competition with immobilised ligand; 1 µM): 95%

Excerpt of the above (sample 1):
AAACAUAAGUUUUAUUUAAAAAAAAAAAAAGAAAGAAAAAAUAGUAAAUUCCCAGAAAUUCAGUGUUUAGACGAGGGAAUUUAAUUCCUAUUUUGUCCAUGUUGGUGAUG: 1.17
ACCAAGGAAUUGCCUCAGCCUCCUACCAGUCCUCCCUCACCCACCUUCUGUCUAGGUUCACUUGGUUUGUCAUCAGGAACUGAGCAGGUCCAGGACUCAGCUUUCUGCUU: 0.708
ACAUGAAGGCUGUGGCAAUCUCAAGAAAUCAUUUUAAUUUGUACAUAUAUUUUCAGGUUCUGCCCACACUGUGAGGUUUUUCUAGAAUCACUGAGUUUCUGAUUUAGUAG: 0.8
